Measurements collected from several papers.
Every numbered part comes from another study and shows a few of its results, in no order. Changes are numbered by the printed parent chain.

Set 1 — method: aptamer microarray, sandwich; form: DNA with 2'F-ANA; sample: in vitro; tested at: 200 nM; together with: Cy3 exosite-II aptamer, 400 nM; reading: higher = stronger binding
Target: Prothrombin, mature alpha-thrombin (F2, Homo sapiens, UniProt P00734)
Notes: whole 15-mer aptamer, many near background
Sequence | mean fluorescence intensity [a.u.]
GGTTGGTGTGGTTGG (2'F-ANA at 1 2 4 5 6 8 10 13 14) | 49.1
GGTTGGTGTGGTTGG (2'F-ANA at 3 5 6 7 8 12 14) | 63.7
GGTTGGTGTGGTTGG (2'F-ANA at 2 4 6 7 11 12 14 15) | 102
GGTTGGTGTGGTTGG (2'F-ANA at 1 2 3 9 10 11 12) | 74.8

Set 2 — method: RNA Bind-n-Seq; form: RNA; sample: in vitro; tested at: not given; baseline: input RNA pool; reading: higher = stronger binding
Target: RING finger protein unkempt homolog, zinc fingers 1-6, GST-SBP tag (UNK, Homo sapiens, UniProt Q9C0B0, residues 30-357)
UniProt Q9C0B0, sequence (30-357, looked up): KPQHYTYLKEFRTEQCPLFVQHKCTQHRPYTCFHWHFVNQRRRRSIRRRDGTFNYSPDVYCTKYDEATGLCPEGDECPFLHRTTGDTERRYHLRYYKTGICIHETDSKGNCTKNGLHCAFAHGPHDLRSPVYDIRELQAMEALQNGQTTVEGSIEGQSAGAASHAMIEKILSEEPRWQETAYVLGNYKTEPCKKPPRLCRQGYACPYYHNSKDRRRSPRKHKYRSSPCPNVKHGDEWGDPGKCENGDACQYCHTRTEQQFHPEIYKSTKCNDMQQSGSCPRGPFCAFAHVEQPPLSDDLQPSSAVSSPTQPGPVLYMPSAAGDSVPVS
Notes: RNA with constant flanks, human and mouse sites, ends assumed
Shared flanks, not repeated: GGGAGUUCUACAGUCCGACGAUC … CAACAGAGGAUUGAGCAUCA
Sequence | bound/input enrichment [ratio]
AAUAGGCUGCCCAUAUAAGUCAAAGGAAAAUGAGCCCAGGCCUUGCUAUGAAGCAGUGUGUGAAUGGACAAUGUUGAAUGAAUGUCUGGCUCAGUGAUGGAGAGCCAGGUUCAUCUUUGA | 0.186
UUGUGUCUGCAGGAACCUGGAGUAUUCCCACAGGAGGUGGCUGAUCGACUGCUUCGGACCAUGGCUUUUCAUGGUCUAUUGAAUGAUGGAACUGUGGGUAUUUUUAGGGGCAACCAGAUG | 0.417
GAUGGUCUGGAAAAAUCUUUCUACUCCUUUUAUGUUUGUACAGCAGUUAGGAAGUUCUUCUUCUUUUUAGAUCCUUUAAGAACAGGAAAGAUAAAAAUUCAAGAUAUUUUAGCAUGCAGC | 1.01
AAGAUGCCUUUCCGGUAGCAGGUCAGAAGUUAAUUUAUGCAGGCAAAAUCCUCAGUGAUGAUACUGCUCUCAAAGAAUAUAAAAUUGAUGAGAAAAACUUUGUGGUGGUUAUGGUGACAA | 0.239
GACUAGACGUUUUGGAUUUACGAUUCUAUUUUGUCGUUCGGUUGGUGGAAGAUGUGCUCGUAGCUCUAUUUUCCAUGACAGAUAGUGACGACACUACGUGCAAAAGGUAUAUAAAGAUGA | 0.405

Set 3 — target: CCNB3, cyclin fold, Cln2 fusion (human); method: yeast growth competition, sequencing; sample: yeast; notes: weak parent motif; baseline: not given; reading: higher = stronger binding
Starting sequence: RB1 docking peptide (human); PKPLKKLRFDIEG; partner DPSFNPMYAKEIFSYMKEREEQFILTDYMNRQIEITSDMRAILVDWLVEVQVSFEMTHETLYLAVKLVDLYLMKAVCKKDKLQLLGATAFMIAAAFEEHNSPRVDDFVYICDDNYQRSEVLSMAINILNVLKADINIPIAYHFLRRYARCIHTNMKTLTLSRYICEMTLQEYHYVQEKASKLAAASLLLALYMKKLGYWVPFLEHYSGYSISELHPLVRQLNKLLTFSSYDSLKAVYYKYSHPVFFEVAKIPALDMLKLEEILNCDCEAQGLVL
Change | normalised enrichment score
PKPLKKLHFDIEG [R8H] | 0.686
PKPLKKLGFDIEG [R8G] | 0.0966
PKPFKKLRFDIEG [L4F] | 0.495
PKPLKELRFDIEG [K6E] | -0.0629

Mixed results
Molecule | target | assay | test system | conditions | how to read | quantity | result
PhoQ, residues 284 288 289 292 302 303 QWGLFV | PhoP, residues 12 14 15 18 19 NNFVT (Escherichia coli, UniProt P23836) | Sort-seq, item: YFP reporter | E. coli | PhoQ-PhoP variant library, together with: 10 µM Mg2+ | baseline: high Mg2+ state, higher = stronger signaling | fold induction | 1.36

Some of these lines once more (set 2):
Sequence | bound/input enrichment [ratio]
AAGAUGCCUUUCCGGUAGCAGGUCAGAAGUUAAUUUAUGCAGGCAAAAUCCUCAGUGAUGAUACUGCUCUCAAAGAAUAUAAAAUUGAUGAGAAAAACUUUGUGGUGGUUAUGGUGACAA | 0.239
GACUAGACGUUUUGGAUUUACGAUUCUAUUUUGUCGUUCGGUUGGUGGAAGAUGUGCUCGUAGCUCUAUUUUCCAUGACAGAUAGUGACGACACUACGUGCAAAAGGUAUAUAAAGAUGA | 0.405
